Measured values from different studies.
Protocols differ between the studies behind these lines. “And” joins repeats or separate records; there may be more than shown. ± marks the error that the study gave.
TMEM97: Sigma intracellular receptor 2 (TMEM97, Homo sapiens, UniProt Q5BJF2)
UniProt Q5BJF2, sequence (whole entry, looked up): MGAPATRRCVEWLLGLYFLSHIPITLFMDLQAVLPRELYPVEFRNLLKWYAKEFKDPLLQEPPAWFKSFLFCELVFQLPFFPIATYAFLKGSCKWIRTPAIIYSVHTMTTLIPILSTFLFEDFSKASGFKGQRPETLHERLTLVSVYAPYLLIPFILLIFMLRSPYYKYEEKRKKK
PPARG: Peroxisome proliferator-activated receptor gamma (PPARG, Homo sapiens, UniProt P37231)
UniProt P37231, sequence (whole entry, looked up): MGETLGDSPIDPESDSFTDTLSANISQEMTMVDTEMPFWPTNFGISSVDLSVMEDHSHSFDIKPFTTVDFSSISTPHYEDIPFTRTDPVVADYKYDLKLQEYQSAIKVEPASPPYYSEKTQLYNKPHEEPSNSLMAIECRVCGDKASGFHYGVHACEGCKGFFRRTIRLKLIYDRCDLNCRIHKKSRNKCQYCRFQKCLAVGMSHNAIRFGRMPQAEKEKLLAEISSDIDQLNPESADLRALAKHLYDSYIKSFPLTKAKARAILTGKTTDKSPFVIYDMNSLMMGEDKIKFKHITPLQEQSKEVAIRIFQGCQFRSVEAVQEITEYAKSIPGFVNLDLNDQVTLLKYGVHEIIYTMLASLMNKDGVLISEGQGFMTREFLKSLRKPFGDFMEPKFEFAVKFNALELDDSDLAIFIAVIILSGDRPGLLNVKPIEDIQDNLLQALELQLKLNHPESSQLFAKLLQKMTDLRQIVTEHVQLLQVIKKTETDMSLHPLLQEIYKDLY
PPM1D: Protein phosphatase 1D (PPM1D, Homo sapiens, UniProt O15297)
UniProt P10145, sequence (whole entry, looked up): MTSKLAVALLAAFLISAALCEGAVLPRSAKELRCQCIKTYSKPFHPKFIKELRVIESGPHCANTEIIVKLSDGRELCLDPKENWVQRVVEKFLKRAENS
UniProt Q9SZU7, sequence (whole entry, unmodified, looked up): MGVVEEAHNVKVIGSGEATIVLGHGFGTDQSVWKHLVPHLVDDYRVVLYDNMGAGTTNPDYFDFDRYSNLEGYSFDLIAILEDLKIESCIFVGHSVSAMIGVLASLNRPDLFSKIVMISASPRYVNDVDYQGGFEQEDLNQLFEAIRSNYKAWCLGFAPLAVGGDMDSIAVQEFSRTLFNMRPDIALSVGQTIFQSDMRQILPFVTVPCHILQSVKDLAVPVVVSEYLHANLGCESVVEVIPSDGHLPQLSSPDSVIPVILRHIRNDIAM
UniProt Q9UM07, sequence (whole entry, looked up): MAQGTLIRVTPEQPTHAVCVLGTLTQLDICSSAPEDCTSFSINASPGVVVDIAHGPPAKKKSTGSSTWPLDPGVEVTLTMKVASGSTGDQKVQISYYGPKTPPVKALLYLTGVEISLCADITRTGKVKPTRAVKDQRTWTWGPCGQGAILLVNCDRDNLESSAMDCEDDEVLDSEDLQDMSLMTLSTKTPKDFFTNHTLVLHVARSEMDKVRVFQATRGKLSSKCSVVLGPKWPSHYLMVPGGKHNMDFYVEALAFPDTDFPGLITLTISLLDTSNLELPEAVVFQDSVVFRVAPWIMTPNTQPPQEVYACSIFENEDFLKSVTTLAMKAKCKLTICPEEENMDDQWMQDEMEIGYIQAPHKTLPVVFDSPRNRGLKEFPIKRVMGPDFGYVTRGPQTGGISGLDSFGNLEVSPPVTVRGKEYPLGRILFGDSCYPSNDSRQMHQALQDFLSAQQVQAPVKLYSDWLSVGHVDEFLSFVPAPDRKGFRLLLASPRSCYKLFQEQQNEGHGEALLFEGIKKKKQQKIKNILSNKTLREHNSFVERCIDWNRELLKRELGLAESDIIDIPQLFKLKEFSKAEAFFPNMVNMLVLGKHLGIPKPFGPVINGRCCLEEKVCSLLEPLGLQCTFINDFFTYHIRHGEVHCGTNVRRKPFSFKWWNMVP
UniProt O15297, sequence (whole entry, looked up): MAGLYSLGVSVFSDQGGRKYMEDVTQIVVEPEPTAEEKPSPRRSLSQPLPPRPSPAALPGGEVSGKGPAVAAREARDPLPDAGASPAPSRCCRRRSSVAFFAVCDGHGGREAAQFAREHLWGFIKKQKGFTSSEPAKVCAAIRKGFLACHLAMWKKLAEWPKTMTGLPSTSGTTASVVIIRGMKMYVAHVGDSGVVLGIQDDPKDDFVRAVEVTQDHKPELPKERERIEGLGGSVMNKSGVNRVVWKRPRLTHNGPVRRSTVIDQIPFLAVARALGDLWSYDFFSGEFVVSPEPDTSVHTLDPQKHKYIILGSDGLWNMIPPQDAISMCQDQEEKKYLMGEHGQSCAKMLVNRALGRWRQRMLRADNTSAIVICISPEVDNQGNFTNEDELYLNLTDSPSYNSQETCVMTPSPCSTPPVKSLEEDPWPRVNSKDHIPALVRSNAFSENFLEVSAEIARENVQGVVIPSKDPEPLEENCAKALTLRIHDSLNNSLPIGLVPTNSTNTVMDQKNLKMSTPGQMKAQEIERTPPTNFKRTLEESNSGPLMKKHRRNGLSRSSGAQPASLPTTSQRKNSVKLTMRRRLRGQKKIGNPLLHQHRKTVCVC
UniProt P02716, sequence (whole entry, unmodified, looked up): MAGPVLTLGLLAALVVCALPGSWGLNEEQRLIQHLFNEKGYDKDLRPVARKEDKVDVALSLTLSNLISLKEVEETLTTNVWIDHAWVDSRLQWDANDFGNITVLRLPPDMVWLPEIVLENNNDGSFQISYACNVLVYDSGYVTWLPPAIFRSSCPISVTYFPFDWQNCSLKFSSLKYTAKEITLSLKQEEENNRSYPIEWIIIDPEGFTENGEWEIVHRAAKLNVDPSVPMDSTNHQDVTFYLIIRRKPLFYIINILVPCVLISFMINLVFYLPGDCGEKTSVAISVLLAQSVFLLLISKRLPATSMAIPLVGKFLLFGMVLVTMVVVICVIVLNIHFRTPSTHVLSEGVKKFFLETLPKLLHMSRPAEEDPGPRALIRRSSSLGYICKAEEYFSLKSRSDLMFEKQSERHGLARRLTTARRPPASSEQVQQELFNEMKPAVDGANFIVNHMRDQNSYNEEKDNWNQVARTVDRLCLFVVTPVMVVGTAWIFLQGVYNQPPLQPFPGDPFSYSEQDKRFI
UniProt Q15303, sequence (whole entry, looked up): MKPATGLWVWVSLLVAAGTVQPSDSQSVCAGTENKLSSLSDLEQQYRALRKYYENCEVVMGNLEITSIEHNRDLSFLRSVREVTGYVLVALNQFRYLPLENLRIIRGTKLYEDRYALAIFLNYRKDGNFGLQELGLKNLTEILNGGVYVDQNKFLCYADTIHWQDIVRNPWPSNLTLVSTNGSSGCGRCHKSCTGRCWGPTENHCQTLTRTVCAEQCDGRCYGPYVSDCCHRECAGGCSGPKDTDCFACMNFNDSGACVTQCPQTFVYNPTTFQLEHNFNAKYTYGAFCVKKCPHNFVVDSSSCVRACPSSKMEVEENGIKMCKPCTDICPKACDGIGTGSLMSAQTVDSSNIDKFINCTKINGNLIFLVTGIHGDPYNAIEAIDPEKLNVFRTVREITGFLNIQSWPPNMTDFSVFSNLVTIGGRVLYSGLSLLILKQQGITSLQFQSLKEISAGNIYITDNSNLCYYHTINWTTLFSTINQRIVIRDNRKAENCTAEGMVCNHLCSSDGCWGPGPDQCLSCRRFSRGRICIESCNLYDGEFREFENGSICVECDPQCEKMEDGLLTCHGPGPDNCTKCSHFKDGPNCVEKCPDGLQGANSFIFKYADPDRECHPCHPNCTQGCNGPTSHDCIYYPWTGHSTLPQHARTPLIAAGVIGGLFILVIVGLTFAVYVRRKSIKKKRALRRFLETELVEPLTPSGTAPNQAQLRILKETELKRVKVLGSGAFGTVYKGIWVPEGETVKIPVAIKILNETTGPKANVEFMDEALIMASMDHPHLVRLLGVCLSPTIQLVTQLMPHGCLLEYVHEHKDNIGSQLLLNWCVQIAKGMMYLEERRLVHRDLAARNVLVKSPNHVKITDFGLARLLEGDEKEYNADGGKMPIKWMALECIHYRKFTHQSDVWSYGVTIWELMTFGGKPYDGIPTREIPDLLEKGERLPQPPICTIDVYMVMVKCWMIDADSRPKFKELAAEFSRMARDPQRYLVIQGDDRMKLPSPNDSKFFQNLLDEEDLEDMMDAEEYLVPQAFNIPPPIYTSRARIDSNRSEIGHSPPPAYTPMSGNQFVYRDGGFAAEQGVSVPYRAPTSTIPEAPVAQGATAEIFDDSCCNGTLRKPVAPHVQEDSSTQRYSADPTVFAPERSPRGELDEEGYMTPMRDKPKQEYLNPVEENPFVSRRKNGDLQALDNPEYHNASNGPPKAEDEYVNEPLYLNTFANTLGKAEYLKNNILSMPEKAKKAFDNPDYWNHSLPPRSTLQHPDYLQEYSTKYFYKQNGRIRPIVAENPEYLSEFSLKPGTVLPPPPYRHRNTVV
UniProt P04756, sequence (whole entry, unmodified, looked up): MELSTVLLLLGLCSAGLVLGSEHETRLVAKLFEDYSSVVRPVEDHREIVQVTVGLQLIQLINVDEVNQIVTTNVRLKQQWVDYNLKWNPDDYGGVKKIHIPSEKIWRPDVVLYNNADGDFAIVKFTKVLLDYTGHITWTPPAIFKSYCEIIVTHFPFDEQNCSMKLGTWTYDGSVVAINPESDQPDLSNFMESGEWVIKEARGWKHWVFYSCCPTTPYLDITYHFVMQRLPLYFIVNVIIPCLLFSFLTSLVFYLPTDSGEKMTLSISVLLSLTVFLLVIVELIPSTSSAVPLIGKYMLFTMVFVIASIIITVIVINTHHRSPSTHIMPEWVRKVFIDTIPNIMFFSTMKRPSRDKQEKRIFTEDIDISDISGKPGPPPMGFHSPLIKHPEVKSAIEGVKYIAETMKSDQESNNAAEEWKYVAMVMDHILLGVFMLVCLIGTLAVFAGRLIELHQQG
UniProt A0A109QYD3, sequence (whole entry, unmodified, looked up): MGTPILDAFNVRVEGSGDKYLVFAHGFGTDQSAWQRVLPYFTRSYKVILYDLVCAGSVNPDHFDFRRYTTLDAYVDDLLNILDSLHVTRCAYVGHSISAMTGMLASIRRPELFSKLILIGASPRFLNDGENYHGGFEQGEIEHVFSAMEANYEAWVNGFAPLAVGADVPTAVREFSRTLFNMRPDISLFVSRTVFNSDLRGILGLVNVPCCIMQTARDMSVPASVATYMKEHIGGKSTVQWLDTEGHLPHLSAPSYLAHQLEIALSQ

SMILES | target | assay | conditions | Kd
C[C@H](NC(=O)[C@H](C)NC(=O)[C@H](C)NC(=O)[C@H](Cc1ccccc1)NC(=O)[C@H](CCCCN)NC(=O)[C@H](CCCNC(=N)N)NC(=O)[C@H](CCCNC(=N)N)NC(=O)[C@H](Cc1ccc(O)cc1)NC(=O)CN)C(=O)N[C@@H](C)C(=O)N[C@@H](C)C(=O)N[C@@H](CO)C(=O)N[C@@H](Cc1c[nH]cn1)C(=O)N[C@@H](CCCNC(=N)N)C(=O)N[C@@H](CCC(=O)O)C(=O)N[C@@H](Cc1ccccc1)C(=O)N1CCC[C@H]1C(=O)N[C@@H](Cc1ccccc1)C(=O)O | TMEM97 | SPR | pH 7.4, 25 °C | > 50 µM
Cc1c(Cc2ccc(OC(C)C(=O)O)cc2)c2ccc(C(=O)NC(C)c3ccc(C(C)(C)C)cc3)cc2n1C (mixture of isomers) | PPARG | ligand displacement, TR-FRET | – | 0.0255 µM
CC1=C(C)[C@H](Oc2c(F)cc3c(C)cc(=O)oc3c2F)OC1=O | RMS3 (Lathyrus oleraceus, UniProt A0A109QYD3, S96C) | binding, fluorescence | – | 55.4 µM
Cc1c(Cc2ccc(F)c(OC(C)C(=O)O)c2)c2ccc(C(=O)NC(C)c3ccc(C(C)(C)C)cc3)cc2n1CC1CCC1 (stereo not shown) | PPARG | ligand displacement, TR-FRET | – | 0.000345 µM
N=C(N)NCCC[C@H](NC(=O)[C@H](Cc1ccc(O)cc1)NC(=O)CN)C(=O)N[C@@H](CCCNC(=N)N)C(=O)N[C@@H](CCCCN)C(=O)N[C@@H](Cc1ccccc1)C(=O)N[C@@H](Cc1c[nH]cn1)C(=O)N[C@@H](CCC(=O)O)C(=O)N[C@@H](CCCCN)C(=O)N[C@@H](Cc1c[nH]cn1)C(=O)N[C@@H](Cc1c[nH]cn1)C(=O)N[C@@H](CO)C(=O)N[C@@H](Cc1c[nH]cn1)C(=O)N[C@@H](CCCNC(=N)N)C(=O)N[C@@H](CCC(=O)O)C(=O)N[C@@H](Cc1ccccc1)C(=O)N1CCC[C@H]1C(=O)N[C@@H](Cc1ccccc1)C(=O)O | TMEM97 | SPR | pH 7.4, 25 °C | 4.61 ± 0.34 µM
C=CC(=O)N1CCCN(C(=O)c2cc(Sc3cnc(NC(=O)C4CC4)s3)c(C)cc2OC)C[C@H]1C | ERBB4 (Homo sapiens, UniProt Q15303) | binding, competition with immobilised ligand | – | > 10 µM
Cc1c(Cc2cccc(OC(C)(C)C(=O)O)c2)c2ccc(C(=O)N[C@@H](C)c3cc(C(C)(C)C)ccc3F)cc2n1CC(C)C | PPARG | ligand displacement, TR-FRET | – | 0.000697 µM
N=C(N)NCCC[C@H](NC(=O)[C@H](Cc1c[nH]cn1)NC(=O)[C@H](CO)NC(=O)[C@H](Cc1c[nH]cn1)NC(=O)[C@H](Cc1c[nH]cn1)NC(=O)[C@H](CCCCN)NC(=O)[C@H](CCC(=O)O)NC(=O)[C@@H](N)Cc1c[nH]cn1)C(=O)N[C@@H](CCC(=O)O)C(=O)N[C@@H](Cc1ccccc1)C(=O)O | TMEM97 | SPR | pH 7.4, 25 °C | > 50 µM
C=CC(=O)N1CC2(CCN(c3nc(OC4CCN(CCCOC)CC4)nc4c(OCC(F)(F)F)c(-c5c(C)ccc6[nH]ncc56)c(C5CC5)cc34)CC2)C1 | GTPase KRas, GDP-bound (KRAS, Homo sapiens, UniProt P01116, G12V) | binding, surface plasmon resonance | – | 36.5 ± 1.6 µM
C#CCCCn1cnc(N)c2nc(Sc3ccc(C)cc3C)nc1-2 | HSP90AA1 (Homo sapiens, UniProt P07900) | binding, ITC | – | 541 µM
CC[C@H](C)[C@H](NC(=O)[C@H](C)NC(=O)[C@H](CC(C)C)NC(=O)[C@H](CCC(N)=O)NC(=O)[C@H](CCCNC(=N)N)NC(=O)CNC(=O)[C@@H](NC(=O)[C@H](CCC(N)=O)NC(=O)CNC(=O)[C@H](CCSC)NC(=O)[C@@H](NC(=O)[C@H](CO)NC(=O)[C@H](CO)NC(C)=O)[C@@H](C)O)C(C)C)C(=O)N[C@H](C(=O)NCC(=O)N[C@@H](CC(=O)O)C(=O)N[C@@H](CC(=O)O)C(=O)N[C@H](C(=O)N[C@@H](CC(N)=O)C(=O)N[C@@H](CCCNC(=N)N)C(=O)N[C@@H](CCCNC(=N)N)C(=O)N[C@@H](Cc1ccc(O)cc1)C(N)=O)[C@@H](C)CC)[C@@H](C)CC | MCL1 (Homo sapiens, UniProt Q07820) | binding, microscale thermophoresis | MBP fusion in DDM micelles | 0.0205 ± 0.008 µM
Cc1cccc2c1N(C(=O)n1ccnn1)CC2 | KAI2 (Arabidopsis thaliana, UniProt Q9SZU7, H246A) | ITC | H246A mutant | 66.7 µM and 78.1 µM and 128 µM
Cc1c(Cc2ccc(F)c(OC(C)C(=O)O)c2)c2ccc(C(=O)NC(C)c3ccc(C(C)(C)C)cc3)cc2n1CC(C)C (stereo not shown) | PPARG | ligand displacement, TR-FRET | – | 0.00301 µM
Cc1oc(-c2ccc(C(F)(F)F)cc2)nc1COc1ccc(S(=O)(=O)N2c3ccccc3C[C@@H]2C(=O)O)cc1 | Triggering receptor expressed on myeloid cells 2 (Homo sapiens, UniProt Q9NZC2) | binding, SPR | – | 95.6 µM
Cc1c[nH]c2nccc(-c3ccc(C(=O)N[C@@H]4c5c(F)cc(C(F)F)cc5C[C@@H]4O)cn3)c12 | PRKG1 (Homo sapiens, UniProt Q13976) | binding, competition with immobilised ligand | – | 0.195 µM
CC(C)Cn1cc(Cc2cccc(OC(C)(C)C(=O)O)c2)c2ccc(C(=O)N[C@@H](C)c3cc(F)cc(C(C)(C)C)c3)cc21 | PPARG | ligand displacement, TR-FRET | – | 0.00287 µM
CCC(C)n1c(C(=O)Nc2cnc(C(=O)NC)n(CC(C)C)c2=O)ncc(NC(=O)c2ncc(NC(=O)c3ccccc3)c(=O)n2CCc2ccc(OCc3ccccc3)cc2)c1=O (stereo not shown) | Heat shock protein HSP 90-alpha, C-terminal domain (HSP90AA1, Homo sapiens, UniProt P07900) | binding, microscale thermophoresis, measured: C-terminal domain | with: labelled CTD 50 nM | 11.7 ± 1 µM
Cc1c(C)n(-c2ccc(Br)cc2)c2ncnc(N3CCC(C(N)C(=O)N4CCCC4)CC3)c12 (stereo not shown) | PADI4 (Homo sapiens, UniProt Q9UM07) | surface plasmon resonance | – | 3.81 µM and 3.56 µM and 1.93 µM and 2.4 µM
CC(=O)c1cnc2ccc(-c3cc(Cl)c(O)c(Cl)c3)nc2c1N[C@H]1CC[C@H](CN(C)C)CC1 | BRI1 (Arabidopsis thaliana, UniProt O22476) | binding, SPR | – | > 100 µM
Cc1c(Cc2ccc(Cl)c(O[C@@H](C)C(=O)O)c2)c2ccc(C(=O)N[C@@H](C)c3cc(F)cc(C(C)(C)C)c3)cc2n1C | PPARG | ligand displacement, TR-FRET | – | 0.00183 µM
C[N+]1(C)CCCC1 | Chrnd/Chrna1/Chrne (Mus musculus, UniProt P02716+P04756+P20782, G173A/S470W) | single-channel kinetics | A chain side site | 194 µM
CCn1c(C)c(Cc2ccc(Cl)c(O[C@H](C)C(=O)O)c2)c2ccc(C(=O)N[C@@H](C)c3ccc(C(C)(C)C)cc3)cc21 | PPARG | ligand displacement, TR-FRET | – | 0.00257 µM
CC(=O)N[C@@H]1[C@@H](O[C@@H]2O[C@H](C(=O)O)[C@@H](O[C@@H]3O[C@H](COS(=O)(=O)O)[C@@H](OS(=O)(=O)O)[C@H](O[C@@H]4O[C@H](C(=O)O)[C@@H](OS(=O)(=O)O)[C@H](OS(=O)(=O)O)[C@H]4OS(=O)(=O)O)[C@H]3NC(C)=O)[C@H](OS(=O)(=O)O)[C@H]2OS(=O)(=O)O)[C@H](OS(=O)(=O)O)[C@@H](COS(=O)(=O)O)O[C@H]1N=[N+]=[N-] | Interleukin-8 (CXCL8, Homo sapiens, UniProt P10145) | binding, ITC | – | 0.0337 µM and 0.0368 µM and 0.032 µM
NS(=O)(=O)c1cc(C(=O)NCCCC(=O)O)c(NC2CCCCC2)cc1Cl | CA13 (Homo sapiens, UniProt Q8N1Q1) | – | pH 7 | 10 µM
CN(C)c1ccc2c(-c3cc(C(=O)NCCNC(=O)[C@H](CC4CCCCC4)NC(=O)c4ccc(CNc5ccccn5)s4)ccc3C(=O)O)c3ccc(=[N+](C)C)cc-3oc2c1 | PPM1D | binding | – | 0.15 µM
C[C@H](N)C(=O)N[C@@H](C)C(=O)N[C@@H](C)C(=O)N[C@@H](CCCNC(=N)N)C(=O)N[C@@H](CCCCN)C(=O)N[C@@H](Cc1ccccc1)C(=O)N[C@@H](Cc1c[nH]cn1)C(=O)N[C@@H](CCC(=O)O)C(=O)N[C@@H](CCCCN)C(=O)N[C@@H](Cc1c[nH]cn1)C(=O)N[C@@H](Cc1c[nH]cn1)C(=O)N[C@@H](CO)C(=O)N[C@@H](Cc1c[nH]cn1)C(=O)N[C@@H](CCCNC(=N)N)C(=O)N[C@@H](CCC(=O)O)C(=O)N[C@@H](Cc1ccccc1)C(=O)N1CCC[C@H]1C(=O)N[C@@H](Cc1ccccc1)C(=O)O | TMEM97 | SPR | pH 7.4, 25 °C | 4.7 ± 0.7 µM
CC(CC1CC2CCC1C2)Nc1nn2c(=O)ccnc2s1 (stereo not shown) | PPM1D | binding | – | 5.3 µM
Cc1c(Cc2ccc(Cl)c(O[C@H](C)C(=O)O)c2)c2ccc(C(=O)N[C@@H](C)c3ccc(C(C)(C)C)cc3)cc2n1CC(C)C | PPARG | ligand displacement, TR-FRET | – | 0.000155 µM
